Earlier results as cited in several papers.
Protocols differ between the studies behind these lines. Numbers after ± are the reported error.

CN1C(C(=O)Nc2ccccn2)=C(O)c2sc(Cl)cc2S1(=O)=O
activity (NR4A2 (Nurr1); cellular; concentration not given): inactive

COc1ccccc1Oc1cccc(CN2CCC(O)(c3ccccc3C(=O)O)CC2)c1
EC50 (human CCR8 F88A mutant (TM2); IP accumulation, agonist): 251 nM

CO[C@H]1/C=C/O[C@@]2(C)Oc3c(C)c(O)c4c(O)c(c(/C=N/N5CCN(C)CC5)c(O)c4c3C2=O)NC(=O)/C(C)=C\C=C\[C@H](C)[C@H](O)[C@@H](C)[C@@H](O)[C@@H](C)[C@H](OC(C)=O)[C@@H]1C
kcat (OATP1B1; optimised model value): 1.24 s⁻¹

CCN1CCN(c2cc(N3CCN(CC)CC3)nc(NCCNc3ccnc4cc(Cl)ccc34)n2)CC1
EC50 (NR4A2 (Nurr1); agonist, cell-based): ~10000 nM

COc1ccc(C[C@H](NC(=O)[C@H](C)NC(=O)CN2CCOCC2)C(=O)N[C@@H](Cc2ccccc2)C(=O)C2(C)CO2)cc1 (stereo in doubt)
inhibition (immunoproteasome subunit LMP2 (β1i); enzyme activity, inhibitor; 0.8 µM): 60 to 80%

N=C(NCCCCC(N)C(N)=O)NCCCSC[C@H]1O[C@@H](n2cnc3c(N)ncnc32)[C@H](O)[C@@H]1O (stereo partly shown)
selectivity ratio (PRMT1; enzyme activity, inhibitor; baseline: SET7/9 IC50 over PRMT1 IC50): ≥ 33 fold

COc1ccc(CNc2c(CO)cnc3c(C4CC4)cc(C#N)cc23)cc1Cl
selectivity ratio (PDE3; baseline: IC50 PDE3 over PDE5): > 10

C[N+](C)(CC(=O)Nc1ccccc1)CC(=O)Nc1ccccc1
time to steady-state block (sodium channel; node; concentration not given, external application): > 25 min

FC(F)(F)c1ccc(Nc2ncnc3sc(Nc4c(Cl)cccc4Cl)nc23)cn1
IC50 (TRPV1; calcium flux, antagonist; HEK293; together with: capsaicin): 14 nM

COc1cc(Nc2c(C#N)cnc3cc(OCCCN4CCN(C)CC4)c(OC)cc23)c(Cl)cc1Cl
inhibition (CSNK1G2; kinase activity, inhibitor; 0.5 µM): 2%

CC(C)Oc1ccc(-c2c[nH]cc2CN(C)CCN)cc1
activity (PRMT9; enzyme activity, inhibitor; concentration not given): inactive

O=C(NCc1ccc(C(F)(F)F)cc1)Nc1cccc2ccc(O)cc12
IC50 (TRPV1; calcium flux, antagonist; HEK293; together with: capsaicin): 4 nM

Cc1ccc2cccc(NC(=O)c3ccc(OC(C)C)cc3)c2n1
Ca2+ affinity (SERCA2a): decreased

CCCCCCCCCCCC1=C(O)C(=O)C=C(O)C1=O
Kd (XIAP BIR3 domain): ≤ 1000 nM

CC(C)(O)c1cccc(-c2ccc3nc(-c4ccc(Cl)cc4)cn3c2)c1
EC50 (NR4A2 (Nurr1); agonist, cell-based): 218 ± 38 nM

CC(CNC(=O)c1ccc(OC(F)(F)F)cc1)c1ccc(O)c2ccc(O)cc12 (stereo not shown)
IC50 (TRPV1; calcium flux, antagonist; HEK293; together with: capsaicin): 14 nM

c1cc(-c2cnn3cc(-c4ccc(OCCN5CCCCC5)cc4)cnc23)ccn1
inhibition (CSNK1G2; kinase activity, inhibitor; 0.5 µM): 26%

O=S(=O)(c1ccc(Nc2ncnc3sc(Nc4c(Cl)cccc4Cl)nc23)cc1)N1CCCC1
IC50 (TRPV1; calcium flux, antagonist; HEK293; together with: capsaicin): 1 nM

COc1ccc(F)cc1C(=O)NCc1ccc(-c2nn([C@@H](C)C(F)(F)F)c(N)c2C(N)=O)cc1
residence time (BTK; binding, SPR; 4 °C): 210 min

Cc1cc(NC(=O)c2cccc(NC(=O)/C=C/CN(C)C)c2)ccc1Nc1nccc(-c2cccnc2)n1
remaining activity (CK1; 1 µM; baseline: control): 18%

CC(C)(O)c1cnc2ncc(-c3ccc(F)c(-c4c(F)cccc4C#N)c3)n2n1
receptor occupancy (rat GABAA benzodiazepine site; rat; oral, 1.0 mg/kg): 87%

C[S+]([O-])c1ccc(-c2nc(-c3ccc(F)cc3)c(-c3ccncc3)[nH]2)cc1 (stereo not shown)
inhibition (CSNK1G3; kinase activity, inhibitor; 0.5 µM): -3.2%

COc1ccccc1Oc1cccc(CN2CCC3(CC2)C(=O)NCN3CCc2ccccc2)c1
EC50 (human CCR8 Y114A mutant (TM3); IP accumulation, agonist): 42 nM

CC(C)n1cnc2c(Nc3cccc(Cl)c3)nc(NCCO)nc21
inhibition (CSNK1G3; kinase activity, inhibitor; 0.5 µM): 93%

COc1ccccc1Oc1cccc(CN2CCC(NC(=O)C(CCN3CCCC3)c3ccccc3)CC2)c1 (stereo not shown)
EC50 (human CCR8; IP accumulation, agonist): > 10000 nM

O=C(NCc1ccc(C(F)(F)F)cc1CCc1ccccc1)Nc1cccc2[nH]ncc12
IC50 (TRPV1; calcium flux, antagonist; HEK293; together with: capsaicin): 8 nM

COc1ccccc1Oc1cccc(CN2CCC(NC(=O)C3CC(=O)Nc4ccccc43)CC2)c1 (stereo not shown)
EC50 (human CCR8 Y42A mutant (TM1); IP accumulation, agonist): 199 nM

O=C(NCCc1cccc(C(F)(F)F)c1)Nc1cccc2cnccc12
IC50 (TRPV1; calcium flux, antagonist; HEK293; together with: capsaicin): 19 nM

O=C1NC(=O)c2c1c1c3ccccc3[nH]c1n1cncc21
inhibition (CSNK1G2; kinase activity, inhibitor; 0.5 µM): 37%

CCCCC/C=C\C[C@@H](O)/C=C/C=C/C=C\[C@@H](O)CCCC(=O)O
kcat (CYP4F3A (human); substrate; yeast microsomes): 0.035 s⁻¹

COCCCc1nc(C(F)(F)F)ccc1CNC(=O)Nc1cccc2[nH]ncc12
IC50 (TRPV1; calcium flux, antagonist; HEK293; together with: capsaicin): 12 nM

CC(=O)N1c2ccc(-c3ccc(C(=O)O)cc3)cc2[C@H](Nc2ccc(Cl)cc2)C[C@@H]1C
selectivity ratio (human BRD4; baseline: BD2 over BD1): ~10 fold

CC1(C)C(C=C(Cl)Cl)C1C(=O)OCc1cccc(Oc2ccccc2)c1 (stereo not shown)
MDR1 inhibition (MDR1, human; B16/F10 overexpressing human MDR1; micromolar): inhibited

O=C(O)c1cc(Cl)ccc1S(=O)(=O)NCCCCN1C(=O)c2cccc3cccc(c23)C1=O
receptor activity (LPA1, LPA3, LPA4, LPA5 receptors; concentration not given): no effect

Oc1ccc(/C=C/c2cc(O)cc(O)c2)cc1
activation (SIRT5; deacetylase activity, activator, fluorogenic peptide substrate; concentration not given; baseline: untreated): ≤ 2.5 fold

Nc1nc(Nc2ccc(S(N)(=O)=O)cc2)n(C(=S)Nc2c(F)cccc2F)n1
inhibition (CSNK1G3; kinase activity, inhibitor; 0.5 µM): 79%

CCNS(=O)(=O)c1ccc(OC)cc1C1(O)CCN(Cc2cccc(Oc3ccccc3OC)c2)CC1
EC50 (human CCR8 Q91W mutant (TM2); IP accumulation, agonist): 180 nM

Cc1nc2c(Cl)cccn2c1NC(=O)c1ccc(-c2ccc(N(C)C)cc2)o1
EC50 (NR4A2 (Nurr1); agonist, cell-based): 90 nM

COc1cccc(-c2cc(=O)c3ccccc3o2)c1N
inhibition (CSNK1G2; kinase activity, inhibitor; 0.5 µM): 2%

CCCCC/C=C\C/C=C\C/C=C\C/C=C\CCCC(=O)O
kcat (CYP4F3A (human); substrate; yeast microsomes): 0.00125 s⁻¹

CCCCCCCC(=O)CCc1ccc(O)c(OC)c1
maximal SERCA2a activity increase (SERCA2a; activator; concentration not given; baseline: control): 25 to 43%

Cl.Nc1nccc(-c2c(-c3ccc(F)cc3)ncn2C2CCNCC2)n1
inhibition (CSNK1G3; kinase activity, inhibitor; 0.5 µM): 16%

FC(F)(F)c1ccc(Nc2nc(N3CCOCC3)nc3sc(Nc4c(Cl)cccc4Cl)nc23)cc1
IC50 (TRPV1; calcium flux, antagonist; HEK293; together with: capsaicin): 30 nM

Excerpt of the above:
COc1ccc(C[C@H](NC(=O)[C@H](C)NC(=O)CN2CCOCC2)C(=O)N[C@@H](Cc2ccccc2)C(=O)C2(C)CO2)cc1 (stereo in doubt)
inhibition (immunoproteasome subunit LMP2 (β1i); enzyme activity, inhibitor; 0.8 µM): 60 to 80%

O=C(O)c1cc(Cl)ccc1S(=O)(=O)NCCCCN1C(=O)c2cccc3cccc(c23)C1=O
receptor activity (LPA1, LPA3, LPA4, LPA5 receptors; concentration not given): no effect

CN1C(C(=O)Nc2ccccn2)=C(O)c2sc(Cl)cc2S1(=O)=O
activity (NR4A2 (Nurr1); cellular; concentration not given): inactive
